# Results pooled from the literature.
# Compare with care: the assays were run in different laboratories.
# Target: Serine/threonine-protein kinase Nek11 (NEK11, Homo sapiens, UniProt Q8NG66)
# One construct used (Q8NG66 1-645): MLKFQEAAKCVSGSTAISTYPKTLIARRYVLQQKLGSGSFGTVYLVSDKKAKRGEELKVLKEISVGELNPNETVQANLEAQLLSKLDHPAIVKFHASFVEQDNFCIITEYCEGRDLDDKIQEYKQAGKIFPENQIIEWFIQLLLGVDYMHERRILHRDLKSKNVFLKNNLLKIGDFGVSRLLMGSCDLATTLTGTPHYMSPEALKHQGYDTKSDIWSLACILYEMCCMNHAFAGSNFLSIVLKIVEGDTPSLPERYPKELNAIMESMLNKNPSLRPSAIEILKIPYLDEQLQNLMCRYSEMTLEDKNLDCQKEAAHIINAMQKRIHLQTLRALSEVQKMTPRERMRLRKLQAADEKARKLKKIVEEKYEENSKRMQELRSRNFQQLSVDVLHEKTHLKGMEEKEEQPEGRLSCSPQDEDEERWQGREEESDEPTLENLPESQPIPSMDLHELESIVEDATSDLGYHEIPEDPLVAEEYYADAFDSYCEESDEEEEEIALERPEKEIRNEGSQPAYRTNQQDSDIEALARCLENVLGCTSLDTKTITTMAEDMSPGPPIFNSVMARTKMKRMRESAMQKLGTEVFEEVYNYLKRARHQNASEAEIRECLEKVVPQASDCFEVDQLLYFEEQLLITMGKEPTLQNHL
Compound,test,conditions,scale,endpoint,value
COCC12C(=O)NC3C4(C(OC)CC1O)C1CC5(O)C(OC)C(O)C(OC(C)=O)(C1C5OC(=O)c1ccccc1)C3(O)C(OC)C24 (stereo not shown),"kinase activity, inhibitor, ProQinase kinase profiling",25 µM,baseline: control,remaining activity,97%
Cc1nc2c(F)cc(-c3nc(Nc4ccc(CNC(=O)CCCCCCC(=O)NO)cc4)ncc3F)cc2n1C(C)C,"enzyme activity, inhibitor",1 µM,,inhibition,72%
COc1ccc(NC(=O)Nc2ccc3c(c2)C(=O)N(C(C)CO)CC(C)C(CN(C)Cc2ccc4c(c2)OCO4)O3)cc1 (stereo not shown),"kinase activity, KinaseProfiler","0.03 µM, species human",baseline: control,remaining activity,105%
O=C(Cc1ccc(OCc2ccccc2)cc1)NC1(C(=O)O)CCN(C(=O)c2ccc(-c3cccc(Cl)c3)cc2)CC1,"enzyme activity, inhibitor",10 µM,,activity vs control,103%
CCn1cc(C(=O)O)c(=O)c2c(N)c(F)c(NC3CCCCC3)cc21,kinase activity,"0.1 µM, with: ATP at Km",,inhibition,0.4%
Nc1ncc(-c2cc(-c3cnn(CC(F)(F)F)c3)ncc2F)nc1C(=O)NC1CNCC(F)C1 (stereo not shown),enzyme activity,1 µM,baseline: DMSO control,remaining activity,87.4%
CNC(=O)C[C@H](Cc1ccc(C#N)cc1)NC(=O)c1cc(-c2ccc(CN[C@H](C)c3ccc(C)cc3)o2)ccc1Cl,"enzyme activity, inhibitor",1 µM,,activity vs control,112%
COc1cc(Nc2nc(C)cc(-c3cnn4nc(OC)ccc34)n2)cc(C(F)(F)F)c1,inhibitor,1 µM,baseline: control,remaining activity,99%
CNC(=O)C1CCN(c2cc(C)c(F)cc2NC(=O)c2ccc(-c3cc(O)ccc3C)c(C)c2)CC1,"binding, competition with immobilised ligand",1 µM,,remaining binding,58%
CNC1C[S+]2CC[S+]3CC[S+](C1)[Ru-4]321([N]=C=S)[n]2c3ccc(OC)cc3c3c4c(c5cc(F)c[n+]1c5c32)C(=O)NC4=O (stereo not shown),KinomeScan,0.1 µM,baseline: untreated,remaining binding,98%
CC(C)=CC1OC(C)(C)C2C=C3C(=O)C(Cl)=CC(O)C3C3C(O)C4OC4C(=O)C132 (stereo not shown),"cell-free assay, competition with immobilised ligand",10 µM,,remaining binding,100%
NC(=O)C[C@H]1CCc2sc3ncnc(O[C@H]4CC[C@H](N5CCOCC5)CC4)c3c21,"enzyme activity, inhibitor",10 µM,,inhibition,3%
CCN1CCN(Cc2ccc(C(=O)Nc3ccc(C)c(NCc4cnc5[nH]ccc5c4OC)c3)cc2C(F)(F)F)CC1,"binding, competition with immobilised ligand",1 µM,,remaining binding,51%

# Some of these lines once more:
Compound,test,conditions,scale,endpoint,value
CCN1CCN(Cc2ccc(C(=O)Nc3ccc(C)c(NCc4cnc5[nH]ccc5c4OC)c3)cc2C(F)(F)F)CC1,"binding, competition with immobilised ligand",1 µM,,remaining binding,51%
